Results gathered from unrelated publications.
Protocols differ between the studies behind these lines. ± gives the spread as reported.
AKR1C3: Aldo-keto reductase family 1 member C3 (AKR1C3, Homo sapiens, UniProt P42330)
Chain of UniProt P42330 (whole entry, looked up): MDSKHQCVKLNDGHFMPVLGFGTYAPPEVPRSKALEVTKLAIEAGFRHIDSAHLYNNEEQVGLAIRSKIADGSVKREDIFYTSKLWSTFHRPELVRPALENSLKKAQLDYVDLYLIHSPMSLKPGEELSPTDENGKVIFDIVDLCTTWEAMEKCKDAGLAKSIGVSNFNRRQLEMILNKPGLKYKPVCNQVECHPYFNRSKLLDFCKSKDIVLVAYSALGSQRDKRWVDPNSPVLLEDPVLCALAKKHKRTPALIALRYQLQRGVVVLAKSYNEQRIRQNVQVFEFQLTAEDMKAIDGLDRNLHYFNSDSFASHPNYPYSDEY
DNMT3A catalytic domain: DNA (cytosine-5)-methyltransferase 3A, catalytic domain (DNMT3A, Homo sapiens, UniProt Q9Y6K1)
Ectonucleoside triphosphate diphosphohydrolase 2: Ectonucleoside triphosphate diphosphohydrolase 2 (Homo sapiens, UniProt Q9Y5L3)
Chain of UniProt Q9Y5L3 (whole entry, looked up): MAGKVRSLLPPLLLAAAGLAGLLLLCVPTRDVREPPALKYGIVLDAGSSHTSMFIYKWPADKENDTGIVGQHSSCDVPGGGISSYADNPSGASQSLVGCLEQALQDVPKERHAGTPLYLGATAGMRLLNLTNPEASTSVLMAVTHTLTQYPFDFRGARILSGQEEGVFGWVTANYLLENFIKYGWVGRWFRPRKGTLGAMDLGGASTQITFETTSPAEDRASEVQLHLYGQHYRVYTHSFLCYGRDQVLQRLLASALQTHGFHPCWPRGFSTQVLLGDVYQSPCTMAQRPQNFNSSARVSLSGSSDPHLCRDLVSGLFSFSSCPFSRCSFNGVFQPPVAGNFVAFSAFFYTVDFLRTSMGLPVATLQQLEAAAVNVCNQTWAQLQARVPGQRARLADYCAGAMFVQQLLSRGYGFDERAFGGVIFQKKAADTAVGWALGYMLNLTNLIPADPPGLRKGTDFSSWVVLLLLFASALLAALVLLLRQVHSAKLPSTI
CTSL: Procathepsin L (CTSL, Homo sapiens, UniProt P07711)
Chain of UniProt P07711 (whole entry, looked up): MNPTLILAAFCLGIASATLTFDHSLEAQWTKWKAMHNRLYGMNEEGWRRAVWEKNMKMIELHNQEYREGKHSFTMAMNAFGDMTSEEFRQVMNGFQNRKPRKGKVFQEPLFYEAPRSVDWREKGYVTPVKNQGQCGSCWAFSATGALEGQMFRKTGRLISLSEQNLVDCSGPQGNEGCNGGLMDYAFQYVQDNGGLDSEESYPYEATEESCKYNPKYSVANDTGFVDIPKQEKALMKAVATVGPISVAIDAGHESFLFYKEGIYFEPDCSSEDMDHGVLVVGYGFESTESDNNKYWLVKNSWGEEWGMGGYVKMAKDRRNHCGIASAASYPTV
CDK2 with cyclin A2: Cyclin-dependent kinase 2, with cyclin A2 (CDK2, Homo sapiens, UniProt P24941)
SIRT6: NAD-dependent protein deacylase sirtuin-6 (SIRT6, Homo sapiens, UniProt Q8N6T7)
Chain of UniProt Q8N6T7 (whole entry, looked up): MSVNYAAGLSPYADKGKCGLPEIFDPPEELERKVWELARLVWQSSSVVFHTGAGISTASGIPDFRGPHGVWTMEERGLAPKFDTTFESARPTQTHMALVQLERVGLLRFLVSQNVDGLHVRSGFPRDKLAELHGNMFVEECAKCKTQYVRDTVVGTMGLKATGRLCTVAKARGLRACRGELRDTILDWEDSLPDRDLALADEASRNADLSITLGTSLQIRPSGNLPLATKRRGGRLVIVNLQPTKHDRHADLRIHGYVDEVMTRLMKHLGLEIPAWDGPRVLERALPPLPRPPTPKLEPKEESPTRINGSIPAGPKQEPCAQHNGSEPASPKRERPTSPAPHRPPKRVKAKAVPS
ST6GAL1: Beta-galactoside alpha-2,6-sialyltransferase 1 (ST6GAL1, Homo sapiens, UniProt P15907)
Chain of UniProt P15907 (whole entry, looked up): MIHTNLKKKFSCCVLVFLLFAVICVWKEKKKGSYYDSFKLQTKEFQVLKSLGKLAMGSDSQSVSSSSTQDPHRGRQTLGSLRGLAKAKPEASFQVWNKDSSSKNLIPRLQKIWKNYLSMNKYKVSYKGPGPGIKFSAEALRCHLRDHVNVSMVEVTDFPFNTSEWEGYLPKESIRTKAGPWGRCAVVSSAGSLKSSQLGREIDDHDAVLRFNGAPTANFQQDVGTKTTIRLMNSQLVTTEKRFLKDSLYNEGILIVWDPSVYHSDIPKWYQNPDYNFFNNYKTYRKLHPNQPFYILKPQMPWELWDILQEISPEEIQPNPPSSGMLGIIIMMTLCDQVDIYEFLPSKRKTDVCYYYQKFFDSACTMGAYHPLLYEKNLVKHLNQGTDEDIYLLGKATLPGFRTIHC
Chain of UniProt P22460 (whole entry, looked up): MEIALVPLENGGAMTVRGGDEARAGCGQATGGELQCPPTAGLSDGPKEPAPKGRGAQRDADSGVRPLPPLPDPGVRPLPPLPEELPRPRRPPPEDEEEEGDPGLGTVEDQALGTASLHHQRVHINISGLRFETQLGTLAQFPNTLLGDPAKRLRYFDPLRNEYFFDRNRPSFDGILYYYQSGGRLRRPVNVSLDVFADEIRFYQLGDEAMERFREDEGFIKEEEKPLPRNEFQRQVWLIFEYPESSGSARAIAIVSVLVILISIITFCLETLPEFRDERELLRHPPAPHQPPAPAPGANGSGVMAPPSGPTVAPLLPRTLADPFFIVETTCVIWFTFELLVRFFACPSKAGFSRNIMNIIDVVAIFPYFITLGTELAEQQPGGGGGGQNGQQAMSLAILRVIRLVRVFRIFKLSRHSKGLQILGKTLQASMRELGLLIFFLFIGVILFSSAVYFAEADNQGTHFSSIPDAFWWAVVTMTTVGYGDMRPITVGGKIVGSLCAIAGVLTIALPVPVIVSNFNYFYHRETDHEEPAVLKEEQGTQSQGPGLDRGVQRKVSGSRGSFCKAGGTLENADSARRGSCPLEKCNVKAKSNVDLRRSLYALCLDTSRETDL
Chain of UniProt Q13336 (whole entry, looked up): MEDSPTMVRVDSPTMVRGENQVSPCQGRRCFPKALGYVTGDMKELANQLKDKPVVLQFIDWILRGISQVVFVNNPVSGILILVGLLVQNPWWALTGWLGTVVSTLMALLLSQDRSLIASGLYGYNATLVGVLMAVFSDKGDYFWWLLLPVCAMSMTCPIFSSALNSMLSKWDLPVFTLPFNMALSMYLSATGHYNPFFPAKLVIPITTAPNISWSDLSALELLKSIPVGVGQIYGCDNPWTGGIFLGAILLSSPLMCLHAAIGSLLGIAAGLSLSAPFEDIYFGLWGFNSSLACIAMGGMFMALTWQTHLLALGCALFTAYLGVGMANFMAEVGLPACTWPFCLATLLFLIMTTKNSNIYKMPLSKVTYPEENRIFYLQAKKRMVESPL
Chain of UniProt Q13547 (whole entry, looked up): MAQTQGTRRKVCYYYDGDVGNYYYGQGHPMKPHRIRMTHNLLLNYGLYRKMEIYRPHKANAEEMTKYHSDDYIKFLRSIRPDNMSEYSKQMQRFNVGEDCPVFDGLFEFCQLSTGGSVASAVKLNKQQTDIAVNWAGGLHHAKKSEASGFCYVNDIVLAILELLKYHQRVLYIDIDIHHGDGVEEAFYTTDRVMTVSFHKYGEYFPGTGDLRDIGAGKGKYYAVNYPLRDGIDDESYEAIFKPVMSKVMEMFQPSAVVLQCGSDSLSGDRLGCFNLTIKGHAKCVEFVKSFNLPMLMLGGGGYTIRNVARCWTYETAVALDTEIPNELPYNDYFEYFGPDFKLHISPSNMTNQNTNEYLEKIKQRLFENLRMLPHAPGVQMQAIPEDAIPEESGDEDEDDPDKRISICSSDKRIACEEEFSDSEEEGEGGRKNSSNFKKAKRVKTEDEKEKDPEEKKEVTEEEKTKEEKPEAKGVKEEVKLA
Chain of UniProt P14679 (whole entry, looked up): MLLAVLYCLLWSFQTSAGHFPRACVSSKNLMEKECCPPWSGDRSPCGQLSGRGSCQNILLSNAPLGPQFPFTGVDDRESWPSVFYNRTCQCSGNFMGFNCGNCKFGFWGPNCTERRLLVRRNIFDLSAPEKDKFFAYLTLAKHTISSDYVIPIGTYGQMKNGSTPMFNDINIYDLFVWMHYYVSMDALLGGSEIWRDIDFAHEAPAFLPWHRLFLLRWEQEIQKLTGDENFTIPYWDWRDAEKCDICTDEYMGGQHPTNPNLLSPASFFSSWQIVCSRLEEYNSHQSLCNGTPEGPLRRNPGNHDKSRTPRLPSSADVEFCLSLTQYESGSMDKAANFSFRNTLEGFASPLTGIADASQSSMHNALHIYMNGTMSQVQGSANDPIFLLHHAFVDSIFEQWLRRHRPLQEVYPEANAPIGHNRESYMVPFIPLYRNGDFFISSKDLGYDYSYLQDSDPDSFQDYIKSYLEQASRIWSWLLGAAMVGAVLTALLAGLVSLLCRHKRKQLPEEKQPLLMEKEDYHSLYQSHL

Structure (SMILES) | target | test | system | setting | inhibition
C[C@H](CCC(=O)N[C@H](CC(c1c[nH]c2ccc([N+](=O)[O-])cc12)c1c[nH]c2ccc([N+](=O)[O-])cc12)C(=O)O)[C@H]1CC[C@H]2[C@@H]3CC[C@@H]4C[C@H](O)CC[C@]4(C)[C@H]3CC[C@]12C | Sialyltransferase ST3Gal-I (Rattus norvegicus, UniProt Q6H8N0) | enzyme activity, inhibitor, UPLC |  | 500 µM | 3%
COc1ccc2c(c1Cl)CC[C@@H]1[C@@H]2CC[C@@]2(C)C(=O)CC[C@@H]12 | AKR1C3 | enzyme activity, inhibitor, absorbance |  | 100 µM, pH 9 | ≥ 80%
CC(=O)c1cnc(N)nc1N1CC[C@H]1c1nn2ccc(Cl)c2c(=O)n1-c1ccccc1 | KCNA5 (Homo sapiens, UniProt P22460) | ion current, inhibitor |  | 3 µM | < 10%
Cc1cc2c(c(O)c1O)C(=O)c1c(O)cc(O)cc1C2=O | DRD4 (Homo sapiens, UniProt P21917) | cAMP, antagonist | CHO | 50 µM | -2.4%
Cc1ccc(C(C)C)cc1NC(=O)COC(=O)/C=C/c1ccc(O)cc1O | Tyrosinase (TYR, Homo sapiens, UniProt P14679) | enzyme activity, inhibitor |  | 50 µg/mL | 91.9%
CCOC(=O)c1cc2c(N)c(C(=O)OC)sc2nc1C | Urea transporter 1 (Homo sapiens, UniProt Q13336) | urea transport, inhibitor | MDCK expressing Urea transporter 1 | concentration not given | 35%
NC(=O)c1ccc(C(=O)NOCc2ccc(Sc3cccc(Cl)c3)c(C(F)(F)F)c2)cc1 | HDAC1 (Homo sapiens, UniProt Q13547) | cell-free assay, inhibitor |  | 100 µM | 17.1%
Oc1c(C(Nc2nccs2)c2ccccc2OCc2ccccc2)ccc2cccnc12 (stereo not shown) | Genome polyprotein, NS2B-NS3 protease (Dengue virus type 2, UniProt P14340) | enzyme activity, inhibitor, fluorogenic |  | 25 µM, 0.1% CHAPS, together with: Bz-Nle-Lys-Arg-Arg-AMC substrate | 92.6 ± 1.47%
Cc1cc(Nc2ccc(NC(=O)c3ccc(NC(=O)c4cccnc4O)cc3)cc2)nc(N)n1 | DNMT3A catalytic domain | enzyme activity, inhibitor |  | 10 µM | 0%
C[C@@]12CC[C@@H]3c4cc(Cl)c(O)cc4CC[C@H]3[C@@H]1CCC2=O | AKR1C3 | enzyme activity, inhibitor, absorbance |  | 10 µM, pH 9 | 60%
CN(C)c1ccc(NC(=S)N(C)c2ccccc2)cc1 | MAPT (Homo sapiens, UniProt P10636) | fibril formation, ThT fluorescence |  | 100 µM, together with: tau 10 µM | 34%
O=C(/C=C/c1ccccc1)Oc1ccc2c(c1)O/C(=C\C=C\c1ccccc1)C2=O | PIK3C3 (Homo sapiens, UniProt Q8NEB9) | enzyme activity, inhibitor, ADP detection |  | 0.1 µM | 79.6%
Cc1cc(Nc2ccc(NC(=O)c3ccc(NC(=O)c4ccnc5ccccc45)cc3)cc2)nc(N)n1 | DNMT3A catalytic domain | enzyme activity, inhibitor |  | 32 µM | 8%
CN(Cc1ccccc1)C(=O)c1cccc(S(=O)(=O)N2CCOCC2)c1 | Ectonucleoside triphosphate diphosphohydrolase 2 | enzyme activity, inhibitor, absorbance |  | 100 µM | 32%
CC(/C=C/C(=O)NO)=C\[C@@H](C)C(=O)c1ccc(N(C)C)cc1 | PTPN11 (Homo sapiens, UniProt Q06124) | enzyme activity, inhibitor, fluorescence |  | 20 µM | 68.8%
O=C(O)c1cc(S(=O)(=O)N2CCOCC2)ccc1Cl | Ectonucleoside triphosphate diphosphohydrolase 2 | enzyme activity, inhibitor, absorbance |  | 100 µM | 15%
C[C@]12CCC[C@H]1[C@@H]1CCc3c(cc(I)c(O)c3I)[C@H]1CC2 | AKR1C3 | enzyme activity, inhibitor, absorbance |  | 10 µM, pH 9 | 11.4%
COc1cc(C(=O)NC2CCC(N3CCN(CC4CCC5(CCCC5)C4)CC3)CC2)c(F)cc1Nc1ncc2c(n1)N(C1CCCC1(F)F)CC(F)(F)C(=O)N2C (stereo not shown) | KDR (Homo sapiens, UniProt P35968) | cell-free assay, TR-FRET |  | 10 µM | 0.14%
NCc1ccc(NC(=O)c2ccc3ccccc3c2O)cc1 | CTSL | enzyme activity, inhibitor |  | 10 µM | < 20%
O=C(Nc1cccc(C(=O)Nc2ccc3[nH]ncc3c2)c1)Nc1cc(C(F)(F)F)ccc1F | NTRK2 (Homo sapiens, UniProt Q16620) | enzyme activity, inhibitor, FRET |  | 1 µM | 11.6%
NOCC(=O)O | CBS (Homo sapiens, UniProt P35520) | enzyme activity, inhibitor |  | 30 µM | 67%
CC(C)Cn1cc(-c2ccnc(Nc3ccc(C(=O)Nc4ccccc4N)cc3)n2)nn1 | CDK2 with cyclin A2 | enzyme activity, inhibitor, TR-FRET |  | 5 µM | 32.7%

Structure (SMILES) | target | test | system | setting | inhibition
NC(=O)c1cn(CC(=O)NCCNC(=O)CCc2nc(-c3cccnc3)no2)c(=O)[nH]c1=O | SIRT6 | demyristoylation |  | 10 µM | 0%
Oc1c(C(Nc2nccs2)c2cccc(OCc3ccccc3)c2)ccc2cccnc12 (stereo not shown) | Genome polyprotein, protease (Dengue virus type 2, UniProt P14340) | enzyme activity, inhibitor, fluorescence |  | 10 µM | 78.5%
CC(=O)C12NC(C)(C)CC1(C)C(=O)C1=C2c2c(c3c4n2C(C)(C)CC2=C4C4(CC(C)(C)NC(C)(C4)C2=O)CC3(C)C)C(=O)C(C)(C)N1 (single isomer, unassigned; (+)) | KCNA3 (Homo sapiens, UniProt P22001) | antagonist | HEK293T | 10 µM | 93.8%
C[C@]12CC[C@@H]3c4cc(I)c(O)c(I)c4CC[C@H]3[C@@H]1CCC2=O | AKR1C3 | enzyme activity, inhibitor, absorbance |  | 10 µM, pH 9 | 13.6%
O=Cc1c2cc(Cl)ccc2n2c1c(-c1ccccc1)c(SC(F)(F)F)c1ccccc12 | EGFR (Homo sapiens, UniProt P00533) | enzyme activity, inhibitor, ADP detection |  | 1 µM | > 50%
O=C(CCCCCCN1CCN(c2ccc(Nc3ncc(F)c(-c4cn(C5CCCC5)nn4)n3)cc2)CC1)NO | CDK2 with cyclin A2 | enzyme activity, inhibitor, TR-FRET |  | 5 µM | 41.6%
CCCC[C@H](NC(C)=O)C(=O)N[C@@H](CO)C(=O)N[C@H](C(=O)N1CCC[C@H]1C(=O)N[C@]1(C)CCCCCCC=CCCC[C@@](C)(C(=O)N[C@@H](Cc2ccccc2)C(=O)N[C@@H](CCCCN)C(=O)N[C@@H](CCCNC(=N)N)C(=O)N[C@@H](CC(C)C)C(=O)N[C@@H](CCC(N)=O)C(N)=O)NC(=O)[C@H](CCCNC(=N)N)NC(=O)[C@H](CCCC)NC(=O)[C@H](CC(C)C)NC(=O)[C@H](CCCNC(=N)N)NC(=O)[C@H](CCCNC(=N)N)NC(=O)[C@H](CCCNC(=N)N)NC1=O)[C@@H](C)O | Very long-chain specific acyl-CoA dehydrogenase, mitochondrial (Homo sapiens, UniProt P49748) | inhibitor |  | 43.2 µM, 30-fold excess | no inhibition
C[C@]12CCC[C@H]1[C@@H]1CCc3c(cc(Cl)c(O)c3Cl)[C@H]1CC2 | AKR1C3 | enzyme activity, inhibitor, absorbance |  | 100 µM, pH 9 | 44.6%
COc1ccc(-c2cc(C(F)(F)F)nc(S(=O)(=O)NCC(=O)Nc3ccc(C)cc3)c2)cc1 | WRN (Homo sapiens, UniProt Q14191) | ATPase activity, ADP-Glo |  | concentration not given | inactive
C[C@H](CCC(=O)N[C@H](CC(c1c[nH]c2ccc(F)cc12)c1c[nH]c2ccc(F)cc12)C(=O)O)[C@H]1CC[C@H]2[C@@H]3CC[C@@H]4C[C@H](O)CC[C@]4(C)[C@H]3CC[C@]12C | ST6GAL1 | enzyme activity, inhibitor, UPLC |  | 25 µM | 86%
C[C@@]12CC[C@@H]3c4ccc(O)c(Br)c4CC[C@H]3[C@@H]1CCC2=O | AKR1C3 | enzyme activity, inhibitor, absorbance |  | 10 µM, pH 9 | 25%
CC(C)CCC[C@@H](C)[C@H]1CCC([C@@H]2CC[C@H]3C[C@H](O)CC[C@]3(C)[C@H]2O)[C@]1(C)CC(=O)O (stereo partly shown) | Bile acid receptor (NR1H4, Homo sapiens, UniProt Q96RI1) | reporter gene, antagonist, luciferase | HEK-293T | 10 µM | 90.1%
COc1cc2c(cc1Br)[C@H]1CC[C@@]3(C)C(=O)CC[C@H]3[C@@H]1CC2 | AKR1C3 | enzyme activity, inhibitor, absorbance |  | 10 µM, pH 9 | 13.6%
C[C@H](CCC(c1c[nH]c2ccccc12)c1c[nH]c2ccccc12)[C@H]1CC[C@H]2[C@@H]3CC[C@@H]4C[C@H](O)CC[C@]4(C)[C@H]3CC[C@]12C | ST6GAL1 | enzyme activity, inhibitor, UPLC |  | 25 µM | 24%
C[C@]12CC[C@@H]3c4cc(Br)c(O)c(Br)c4CC[C@H]3[C@@H]1CCC2=O | AKR1C3 | enzyme activity, inhibitor, absorbance |  | 100 µM, pH 9 | 58.3%
CC(C)C[C@H](NC(=O)[C@H](CCC(N)=O)NC(=O)[C@H](CCCCN)NC(=O)[C@H](CCCNC(=N)N)NC(=O)[C@@H]1CCCN1C(=O)[C@H](C)NC(=O)[C@@H](N)CCCCN)C(=O)N[C@@H](C)C(=O)N[C@H](C(=O)N[C@@H](CCCCN)C(=O)N[C@@H](C)C(=O)N[C@@H](C)C(=O)N[C@@H](CCCNC(=N)N)C(=O)N[C@@H](CCCCN)C(=O)N[C@@H](CO)C(=O)N[C@@H](C)C(=O)N1CCC[C@H]1C(=O)N[C@@H](C)C(=O)O)[C@@H](C)O | CTSL | enzyme activity, inhibitor |  | 25 µM, pH 7.4, 25 °C, 3% DMSO, together with: Z-LR-Mca at 0.16 x Km | 68 ± 2%
NC(=O)c1cn(CC(=O)NC[C@H](NC(=O)CCc2nc(-c3cccnc3)no2)C(=O)NCCc2ccccc2)c(=O)[nH]c1=O | SIRT6 | demyristoylation |  | 10 µM | 29%
CC(C)(C)CCN1C[C@@H]2[C@@H](CNC(=O)c3cc(Cl)cc(Cl)c3)[C@@H]2C1.Cl | Voltage-dependent L-type calcium channel subunit alpha-1F (Homo sapiens, UniProt O60840, M1426A) | calcium current, whole-cell patch clamp | HEK-293T transfected | 10 µM, M1426A mutant | ~50%
C[C@H](CCC(=O)N[C@H](CC(c1c[nH]c2ccccc12)c1c[nH]c2ccccc12)C(=O)O)[C@H]1CC[C@H]2[C@@H]3CC[C@@H]4C[C@H](O)CC[C@]4(C)[C@H]3CC[C@]12C | ST6GAL1 | enzyme activity, inhibitor, UPLC |  | 25 µM | 100%
C[C@H](NC(=O)CNC(=O)[C@@H]1CSSC[C@H](NC(=O)[C@H](C)NC(=O)CN)C(=O)N[C@@H](CCCNC(=N)N)C(=O)N[C@@H](CCCNC(=N)N)C(=O)N[C@@H](CCC(=O)O)C(=O)N[C@@H]([C@@H](C)O)C(=O)N[C@@H](C)C(=O)N[C@@H](Cc2c[nH]c3ccccc23)C(=O)N[C@@H](C)C(=O)N1)C(=O)O | Integrin alpha-V/beta-3 (Homo sapiens, UniProt P05106+P06756) | cell attachment to vitronectin | IMR-90 | concentration not given | no inhibition
COc1cc(O)c2c(=O)c(OC)c(-c3ccc(O)c(O)c3)oc2c1 | MAL12 (Saccharomyces cerevisiae S288c, UniProt P53341) | enzyme activity, inhibitor, absorbance |  | 50 µM | 23.4%

For quick reference, copied from above:
Structure (SMILES) | target | test | system | setting | inhibition
CC(=O)C12NC(C)(C)CC1(C)C(=O)C1=C2c2c(c3c4n2C(C)(C)CC2=C4C4(CC(C)(C)NC(C)(C4)C2=O)CC3(C)C)C(=O)C(C)(C)N1 (single isomer, unassigned; (+)) | KCNA3 (Homo sapiens, UniProt P22001) | antagonist | HEK293T | 10 µM | 93.8%
C[C@]12CC[C@@H]3c4cc(I)c(O)c(I)c4CC[C@H]3[C@@H]1CCC2=O | AKR1C3 | enzyme activity, inhibitor, absorbance |  | 10 µM, pH 9 | 13.6%
O=Cc1c2cc(Cl)ccc2n2c1c(-c1ccccc1)c(SC(F)(F)F)c1ccccc12 | EGFR (Homo sapiens, UniProt P00533) | enzyme activity, inhibitor, ADP detection |  | 1 µM | > 50%
O=C(CCCCCCN1CCN(c2ccc(Nc3ncc(F)c(-c4cn(C5CCCC5)nn4)n3)cc2)CC1)NO | CDK2 with cyclin A2 | enzyme activity, inhibitor, TR-FRET |  | 5 µM | 41.6%
